Assay results pooled from the literature.
Protocols differ between the studies behind these lines. ± gives the spread as reported.

O=Cc1c(O)ccc2ccccc12 — log2 fold change (HUVEC; RNA sequencing, item: ADM2; 75 µM, 24 h; reference: DMSO): 5
COc1cc(CNC(=O)C[C@H](C)CCC=C(C)C)ccc1OCc1cn(-c2ccc([N+](=O)[O-])cc2)nn1 — growth percent (UO-31; SRB; 10 µM, 48 h): 42.1%
CCCC[n+]1cccc(C2NC(C(=O)OCC)C34c5c6c7c8c9c%10c(c%11c%12c3c3c5c5c%13c6c6c7c7c9c9c%14c%10c%10c%11c%11c%12c%12c3c3c5c5c%13c%13c6c6c7c9c7c9c%14c%10c%10c%11c%11c%12c3c3c5c5c%13c6c7c6c9c%10c%11c3c56)C824)c1 (stereo not shown) — CC50 (BC-3; cell growth or viability; 24 h): 9.6 µM
COc1ccc([C@@H]2CC(=O)c3c(O)cc(O[C@@H]4O[C@H](CO[C@@H]5O[C@@H](C)[C@H](O)[C@@H](O)[C@H]5O)[C@@H](O)[C@H](O)[C@H]4O)cc3O2)cc1O — gap closure (A549; cell migration, scratch; 100 µg/mL, 72 h): 12.4 ± 0.48%
COc1cc(CNC(=O)C[C@H](C)CCC=C(C)C)ccc1O — growth percent (SNB-75 CNS cancer cells; SRB; 10 µM, 48 h): 56.8%
O=C(O)CCC(NP(=O)(O)OCCC[C@@H](NC(=O)CC[C@H](NC(=O)CCCCCNC(=O)c1ccc([18F])cc1)C(=O)O)C(=O)O)C(=O)O (stereo partly shown) — cell uptake (CWR22Rv1; concentration not given, 1 h): 0.56 ± 0.05%
CCCCCCCCCCCCCCCC(=O)N[C@@H](CCC(=O)NCCCC[C@H](NC(=O)[C@H](CC(=O)O)NC(=O)[C@H](CO)NC(=O)[C@@H](NC(=O)[C@H](Cc1ccccc1)NC(=O)[C@@H](NC(=O)CNC(=O)[C@H](CCC(N)=O)NC(=O)[C@H](CO)NC(=O)[C@@H](N)Cc1c[nH]cn1)[C@@H](C)O)[C@@H](C)O)C(=O)N[C@@H](CO)C(=O)N[C@@H](CCC(=O)O)C(=O)N[C@@H](Cc1ccc(O)cc1)C(=O)N[C@@H](CC(C)C)C(=O)N[C@@H](CC(=O)O)C(=O)N[C@@H](CO)C(=O)N[C@@H](CCC(=O)O)C(=O)N[C@@H](CCCNC(=N)N)C(=O)N[C@@H](C)C(=O)N[C@@H](CCCNC(=N)N)C(=O)N[C@@H](CC(=O)O)C(=O)N[C@@H](Cc1ccccc1)C(=O)N[C@H](C(=O)N[C@@H](C)C(=O)N[C@@H](Cc1c[nH]c2ccccc12)C(=O)N[C@@H](CC(C)C)C(=O)N[C@@H](CCC(=O)O)C(=O)N[C@@H](C)C(=O)NCC(=O)NCC(=O)O)C(C)C)C(=O)O — EC50 (primary rat hepatocytes; cAMP accumulation, agonist; 0.1% BSA): 0.000462 ± 5.7e-05 µM
O=Cc1ccc(N2CCC(O)CC2)o1 — inhibition of sickling (human sickle cell (SS) red blood cells; RBC morphology; 2 mM, 2 h, 37 °C, hypoxia 2.5% O2, haematocrit 20%; reference: untreated): 22%
COc1cc2c(C=C3C(=O)Nc4ccccc43)c[nH]c2cc1C — TGI (CNS cancer subpanel of NCI-60; 48 h): 3.63 µM
CCN(CC)CC(=O)Nc1cccc(-n2cc(-c3ccc4ccc(-c5cn(-c6cccc(NC(=O)CN(CC)CC)c6)nn5)cc4c3)nn2)c1 — HIF-2α protein level (786-0 cells; Western blot; 5 x IC50, 4 h, hypoxia; reference: untreated): 51%
COc1cc(CNC(=O)C[C@H](C)CCC=C(C)C)ccc1OCc1cn(-c2ccc(F)cc2)nn1 — growth (NCI/ADR-RES; SRB; 10 µM, 48 h): 45.4%
C[C@H](NC(=O)[C@H](CCC(N)=O)NC(=O)[C@H](Cc1c[nH]c2ccccc12)NC(=O)[C@@H](N)CCCNC(=N)N)C(=O)N[C@@H](CCCNC(=N)N)C(=O)N[C@@H](Cc1c[nH]c2ccccc12)C(=O)N[C@@H](CCC(N)=O)C(=O)N[C@@H](Cc1c[nH]c2ccccc12)C(=O)N[C@@H](CCCNC(=N)N)C(N)=O — viability (young human fibroblasts primary; MTT; concentration not given, 24 h, 37 °C, 5% FBS; reference: untreated cells): 79 ± 4%
CCC(=C(c1ccc(Cl)cc1)c1ccc(OCCCN(C)C)cc1)c1ccc(OC)cc1 — GI50 (UO-31; cell growth or viability): 5.3 µM
CCn1nc2c(c1Nc1nc(-c3ccc(-n4cnc(C)c4)c(OC)n3)cs1)CCCC2 — selectivity ratio (SH-SY5Y-APP; reference: Aβ38 EC50 over Aβ42 IC50): 10 fold
FC(F)(F)c1ccnc(-c2cc(C(F)(F)F)ccn2)c1.FC(F)(F)c1ccnc(-c2cc(C(F)(F)F)ccn2)c1.[Cl-].[Cl-].[Ru+2].c1csc(-c2ccc(-c3ccc(-c4nc5c6cccnc6c6ncccc6c5[nH]4)s3)s2)c1 — mean phototherapeutic index (SK-MEL-28; cell viability; normoxia, with: red light 633 nm; reference: dark EC50 over light EC50): 52
CS(C)=O.CS(C)=O.[Cl][Cu][Cl].c1ccc(-c2nnc(-c3ccc4c(c3)OCO4)[nH]2)nc1 — cells in G2/M phase (T24; PI flow cytometry; 5.3 µM, 24 h): 34.8%
N#Cc1cccc(-c2ccc(=O)n(Cc3cccc(-c4ncc(OCC5CCN(CC(=O)NCCOCCNc6ccc7c(c6)C(=O)N(C6CCC(=O)NC6=O)C7=O)CC5)cn4)c3)n2)c1 (stereo not shown) — time to complete inhibition (EBC-1, Hs746T; Western blot, item: phospho-MET; 10 and 100 nM, sustained 24 h): 6 h
COc1cc(CNC(=O)C[C@H](C)CCC=C(C)C)ccc1OCc1cn(-c2ccccc2[N+](=O)[O-])nn1 — growth (NCI/ADR-RES; SRB; 10 µM, 48 h): 36%
CCCC(CCC)C(=O)[O][Pt]([NH2])([NH2])([Cl])([Cl])[O]C(=O)c1ccccc1OC(C)=O — IC50 fold lower (six human cancer lines; cytotoxicity, MTT; reference: cisplatin): ~10 fold
Cc1cc([C@H](C(=O)N2C[C@H](O)C[C@H]2C(=O)N[C@@H](CC(=O)N2CCC(N3CCC(C#Cc4ccc(C(=O)N[C@H]5C(C)(C)[C@H](Oc6ccc(C#N)c(Cl)c6)C5(C)C)cc4)CC3)CC2)c2ccc(-c3scnc3C)cc2)C(C)C)on1 — G2/M arrest concentration (HCC1428; flow cytometry; 72 h): 0.5 µM
COc1ccc(-c2cc(COC3c4cc5c(cc4C(c4cc(OC)c(OC)c(OC)c4)C4C(=O)OCC34)OCO5)on2)cc1 (stereo not shown) — caspase-3/7 activation (MIA PaCa-2; 20 µg/mL, 24 h): 92.3%
COc1ccc2nc3ccc(OC)cc3c(SCCCN)c2c1 — proteasome activity (primary CD138+ myeloma cells; human; 10 µM, 2 h): decreased
Cc1nn(-c2ccc(S(=O)(=O)N[C@H](CO)CC(C)C)cc2)c2nn3nnnc3nc12 — apoptotic cells (HT-29; PI/Hoechst staining; 2 µM, 24 h): 37 ± 1.4%
COc1cc(CNC(=O)C[C@H](C)CCC=C(C)C)ccc1OCc1cn(-c2ccccc2Cl)nn1 — growth percent (SNB-75 CNS cancer cells; SRB; 10 µM, 48 h): 60%
O=C(N1CCCC1)n1cc(-c2ccc(-c3ccccc3)cc2)nn1 — SILAC ratio (mouse T-cells; N-terminal labeled proteins, N-terminal enrichment proteomics, item: FBXO7; 1 nM, 6 h; reference: DMSO): 0.88 ± 0.21
Cc1cc(/C=C/c2ccc(O)c(O)c2)[nH]n1 — reduction in micronuclei (CHO; 2.5 µM, 2 h pretreatment, read 18 h post-irradiation, with: 4 Gy radiation; reference: irradiated control): ~25%
O=C(CSc1nc2ccccc2s1)Nc1nonc1[N+](=O)[O-] — mRNA level (Ramos; qRT-PCR, item: Myc-target genes; 15 µM, 8 h): decreased
CC(=O)Oc1ccccc1C(=O)[O][Pt]([NH2])([NH2])([Cl])([Cl])[O]C(=O)C(Cl)Cl — selectivity index (HEK293 and BCPAP; cytotoxicity, MTT; reference: IC50 HEK293 over IC50 BCPAP): 1.5
COC(=O)CCNC(=O)CNC(=O)CCn1nc(Cc2ccccc2)c2ccccc2c1=O — total apoptotic cells (HCT-116; 0.32 µM, 48 h): 27.6%
COc1ccc(NC(=O)N/N=C2\CC3(CCN(C)CC3)Oc3ccccc32)cc1 — apoptotic cells (HCT-116; annexin V-FITC/PI; concentration not given, 24 h, Late apoptosis): 16.3%
C=C[C@H](OC(C)=O)c1ccc(OC(C)=O)cc1 — Bcl-xL protein decrease (MDA-MB-231; Western blot; IC50, 24 h; reference: untreated): 30 to 50%
CO[C@H]1O[C@H](COC(c2ccccc2)(c2ccccc2)c2ccccc2)[C@@H](OS(=O)(=O)c2ccccc2)[C@H](OS(=O)(=O)c2ccccc2)[C@H]1OS(=O)(=O)c1ccccc1 — inhibition (Ehrlich; cell growth or viability, MTT; 15.625 µg/mL, 24 h): 1.21%
C[C@H](NC(=O)[C@H](Cc1c[nH]c2ccccc12)NC(=O)[C@@H](N)CCCNC(=N)N)C(=O)N[C@@H](Cc1c[nH]c2ccccc12)C(=O)N[C@@H](CCCNC(=N)N)C(=O)N[C@@H](Cc1c[nH]c2ccccc12)C(=O)N[C@@H](CCC(N)=O)C(=O)N[C@@H](Cc1c[nH]c2ccccc12)C(=O)N[C@@H](CCCNC(=N)N)C(N)=O — viability (young human fibroblasts primary; MTT; concentration not given, 24 h, 37 °C, 5% FBS; reference: untreated cells): 91 ± 5%
COc1cc(CNC(=O)C[C@H](C)CCC=C(C)C)ccc1OCc1cn(-c2cccc(C(F)(F)F)c2)nn1 — growth (NCI/ADR-RES; SRB; 10 µM, 48 h): 44%
C=CC(OC(C)=O)c1cc(OC)c(OC(C)=O)c(OC)c1 (stereo not shown) — Bax protein level (MDA-MB-231; Western blot; IC50, 24 h; reference: untreated): 2.9 fold
CSc1nc(Nc2ccc(/C(C)=N/NC(=O)c3ccc([N+](=O)[O-])cc3[N+](=O)[O-])cc2)c(C#N)c(-c2ccccc2)n1 — early apoptotic cells (HCT-116; annexin V-FITC/PI flow cytometry; 1.14 µM, 24 h): 5.47%
COc1ncccc1CN(C(=O)OCc1ccc([N+](=O)[O-])cc1F)[C@H]1C[C@@H]1c1ccccc1 (racemic) — selectivity ratio (THP-1 cells; colony forming unit; reference: EC50 wild type over NTR-expressing): 10 ± 5
CCOC(=O)CCCCC[C@@H]1NC(=O)[C@H]2CCCN2C(=O)[C@H](Cc2ccccc2)NC(=O)[C@H](Cc2ccccc2)NC1=O — intracellular PGRN level (iPSC-derived NPCs; ELISA, item: progranulin; 1 µM, 18 h): no effect
O=C(Cn1c(=O)c(Cc2ccccc2)nc2ccccc21)OCCNCCO — mRNA level (HCT-116; qRT-PCR, item: BAX; concentration not given, 72 h; reference: untreated): 4.114 ± 0.015 fold
Cc1c(C)c(C)[c-](C)c1C.[C-]#[O+].[C-]#[O+].[C-]#[O+].[Cl-].[Cl-].[Cl-].[Ir+3].[Re+].c1cnc(-c2ncccn2)nc1 — cells with depolarised mitochondria (MDA-MB-468; JC-1 flow cytometry; 50 µM): 62.2%
COc1cc(CNC(=O)C[C@H](C)CCC=C(C)C)ccc1OCc1cn(-c2ccccc2F)nn1 — growth percent (SNB-75 CNS cancer cells; SRB; 10 µM, 48 h): 10.6%
COc1ccc(NC(=O)COc2ccc(/C=C/C(C)=N/O)cc2OC)cc1 — ROS positive cells (SH-SY5Y; DCFDA flow cytometry; 5 µM, with: amyloid beta 10 µM): 53.6%
COc1ccc2nc(C)ccc2c1Nc1sn(C)c(=O)c1C#N — NAD+ level (mouse DRG neurons; up to 10 µM, 22 h): no effect
CC/C=C\C/C=C\C/C=C\C/C=C\C/C=C\C/C=C\CCC(=O)Nc1ccn(C2OC(CO)C(O)C2(F)F)c(=O)n1 (stereo not shown) — GI50 (OVCAR-4; cell growth or viability, SRB): 14.5 µM
COc1ccc([C@@H]2CC(=O)c3c(O)cc(O[C@@H]4O[C@H](CO[C@@H]5O[C@@H](C)[C@H](O)[C@@H](O)[C@H]5O)[C@@H](O[C@H]5O[C@H](CO)[C@@H](O)[C@H](O)[C@H]5O)[C@H](O)[C@H]4O)cc3O2)cc1O — viability (A549; cell growth or viability, MTS; 50 µg/mL, 72 h): 52.1%
CC(=O)OC[C@H]1O[C@@H](Sc2sc(C(=O)c3ccc(C)cc3)c(N)c2-c2nc3ccccc3s2)[C@H](OC(C)=O)[C@@H](OC(C)=O)[C@H]1OC(C)=O — growth (Malme-3M; SRB; 10 µM, 48 h; reference: untreated): 98%
